Measurements from different studies.
Every numbered part comes from another study and shows a few of its results, in no order.
Sequence of UniProt Q14680 (whole entry, looked up): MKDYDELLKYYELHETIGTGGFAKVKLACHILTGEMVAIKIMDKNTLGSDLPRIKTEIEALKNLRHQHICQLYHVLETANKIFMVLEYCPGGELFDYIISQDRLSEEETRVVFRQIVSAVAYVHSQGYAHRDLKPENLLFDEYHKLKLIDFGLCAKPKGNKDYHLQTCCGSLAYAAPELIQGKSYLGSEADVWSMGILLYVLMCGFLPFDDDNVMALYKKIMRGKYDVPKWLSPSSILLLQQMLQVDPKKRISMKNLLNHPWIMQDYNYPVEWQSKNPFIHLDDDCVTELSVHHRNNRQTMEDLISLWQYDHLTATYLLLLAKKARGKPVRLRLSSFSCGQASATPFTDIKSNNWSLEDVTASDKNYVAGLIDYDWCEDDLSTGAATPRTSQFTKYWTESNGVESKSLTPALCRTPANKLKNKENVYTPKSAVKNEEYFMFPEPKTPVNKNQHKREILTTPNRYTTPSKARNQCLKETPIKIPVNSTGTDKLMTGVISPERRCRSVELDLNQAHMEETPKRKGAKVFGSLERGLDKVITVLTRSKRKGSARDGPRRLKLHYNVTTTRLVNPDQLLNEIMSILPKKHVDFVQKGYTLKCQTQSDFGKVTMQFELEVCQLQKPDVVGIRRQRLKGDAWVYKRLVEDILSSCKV
Sequence of UniProt Q86UX6 (whole entry, looked up): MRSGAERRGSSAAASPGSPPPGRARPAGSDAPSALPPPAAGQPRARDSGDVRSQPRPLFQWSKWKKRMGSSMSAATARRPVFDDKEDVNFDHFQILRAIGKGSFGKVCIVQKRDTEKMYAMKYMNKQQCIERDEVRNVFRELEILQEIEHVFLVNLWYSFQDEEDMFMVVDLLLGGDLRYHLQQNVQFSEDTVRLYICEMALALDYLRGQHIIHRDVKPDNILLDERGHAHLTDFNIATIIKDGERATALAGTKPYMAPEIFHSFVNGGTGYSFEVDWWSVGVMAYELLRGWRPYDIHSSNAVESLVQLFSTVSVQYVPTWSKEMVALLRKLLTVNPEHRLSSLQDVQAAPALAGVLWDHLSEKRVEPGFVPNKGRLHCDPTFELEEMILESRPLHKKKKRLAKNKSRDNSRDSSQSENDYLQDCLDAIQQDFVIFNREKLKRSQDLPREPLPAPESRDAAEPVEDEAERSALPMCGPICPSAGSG
Sequence of UniProt P11362 (whole entry, looked up): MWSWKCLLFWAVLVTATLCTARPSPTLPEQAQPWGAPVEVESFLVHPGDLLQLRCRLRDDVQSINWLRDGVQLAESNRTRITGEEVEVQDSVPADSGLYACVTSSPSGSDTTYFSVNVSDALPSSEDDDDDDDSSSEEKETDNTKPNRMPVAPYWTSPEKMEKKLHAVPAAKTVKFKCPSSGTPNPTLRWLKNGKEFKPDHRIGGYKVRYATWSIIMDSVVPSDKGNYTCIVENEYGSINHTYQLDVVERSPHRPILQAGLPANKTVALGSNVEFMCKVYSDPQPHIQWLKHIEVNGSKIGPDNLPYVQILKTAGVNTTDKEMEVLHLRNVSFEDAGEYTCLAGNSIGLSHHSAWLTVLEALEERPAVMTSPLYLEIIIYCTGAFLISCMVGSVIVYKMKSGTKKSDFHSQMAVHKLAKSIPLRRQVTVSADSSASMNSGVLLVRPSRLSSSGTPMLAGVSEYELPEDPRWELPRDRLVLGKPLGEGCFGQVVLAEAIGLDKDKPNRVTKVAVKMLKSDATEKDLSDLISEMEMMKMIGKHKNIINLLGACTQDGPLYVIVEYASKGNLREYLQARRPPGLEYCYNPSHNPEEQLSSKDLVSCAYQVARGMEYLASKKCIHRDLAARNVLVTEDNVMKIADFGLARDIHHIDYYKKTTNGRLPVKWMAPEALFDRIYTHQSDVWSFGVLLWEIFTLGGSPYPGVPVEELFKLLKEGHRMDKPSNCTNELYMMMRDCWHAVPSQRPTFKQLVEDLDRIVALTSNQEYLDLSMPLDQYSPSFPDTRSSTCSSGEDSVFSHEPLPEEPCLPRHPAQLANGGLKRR
Sequence of UniProt Q9H1R3 (whole entry, looked up): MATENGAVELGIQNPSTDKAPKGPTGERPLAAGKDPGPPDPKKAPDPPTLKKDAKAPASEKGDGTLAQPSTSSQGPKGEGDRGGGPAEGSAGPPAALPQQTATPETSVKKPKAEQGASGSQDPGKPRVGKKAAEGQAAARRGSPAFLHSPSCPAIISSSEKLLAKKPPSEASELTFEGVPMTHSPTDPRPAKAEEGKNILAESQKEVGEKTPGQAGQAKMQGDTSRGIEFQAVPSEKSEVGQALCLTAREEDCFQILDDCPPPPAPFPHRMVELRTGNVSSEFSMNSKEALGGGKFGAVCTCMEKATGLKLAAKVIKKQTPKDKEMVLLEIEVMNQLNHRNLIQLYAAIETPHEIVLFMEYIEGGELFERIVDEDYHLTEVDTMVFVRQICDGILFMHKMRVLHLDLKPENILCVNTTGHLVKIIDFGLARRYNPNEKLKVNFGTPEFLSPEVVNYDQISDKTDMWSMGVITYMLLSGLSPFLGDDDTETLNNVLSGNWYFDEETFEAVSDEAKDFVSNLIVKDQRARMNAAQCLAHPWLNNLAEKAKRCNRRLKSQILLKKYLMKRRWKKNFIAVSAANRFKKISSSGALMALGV
Sequence of UniProt P30291 (whole entry, looked up): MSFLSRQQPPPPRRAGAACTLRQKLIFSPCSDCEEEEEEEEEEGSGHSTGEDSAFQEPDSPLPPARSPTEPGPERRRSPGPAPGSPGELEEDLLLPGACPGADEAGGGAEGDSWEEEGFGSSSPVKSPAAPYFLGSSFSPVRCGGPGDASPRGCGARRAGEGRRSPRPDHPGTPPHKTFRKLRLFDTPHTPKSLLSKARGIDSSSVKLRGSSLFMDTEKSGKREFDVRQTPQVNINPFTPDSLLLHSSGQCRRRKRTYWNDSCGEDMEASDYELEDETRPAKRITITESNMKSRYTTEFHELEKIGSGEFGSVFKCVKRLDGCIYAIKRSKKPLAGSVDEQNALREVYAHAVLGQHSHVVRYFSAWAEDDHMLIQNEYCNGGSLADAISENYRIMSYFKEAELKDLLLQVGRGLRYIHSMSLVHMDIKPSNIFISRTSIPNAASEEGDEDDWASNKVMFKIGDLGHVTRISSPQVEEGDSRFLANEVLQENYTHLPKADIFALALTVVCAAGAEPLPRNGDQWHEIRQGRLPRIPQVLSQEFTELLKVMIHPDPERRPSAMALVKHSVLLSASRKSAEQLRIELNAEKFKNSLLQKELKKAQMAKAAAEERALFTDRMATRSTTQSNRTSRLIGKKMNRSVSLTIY

Sample 1
SMILES: O=C(NC[C@@H]1[C@H]2CN(C(=O)OCc3cc(C(F)(F)F)cc(C(F)(F)F)c3)C[C@@H]12)c1ccc2[nH]nnc2c1
Observed: cell-free assay
Method: competition with immobilised ligand
Concentration: 1 µM
target | remaining binding [%]
Epidermal growth factor receptor (EGFR, Homo sapiens, UniProt P00533, del747-750/T751S) | 100
Maternal embryonic leucine zipper kinase (MELK, Homo sapiens, UniProt Q14680) | 97
Serine/threonine-protein kinase 32C (STK32C, Homo sapiens, UniProt Q86UX6) | 90
Myosin light chain kinase 2, skeletal/cardiac muscle (MYLK2, Homo sapiens, UniProt Q9H1R3) | 97
Fibroblast growth factor receptor 1 (FGFR1, Homo sapiens, UniProt P11362) | 90
Wee1-like protein kinase (WEE1, Homo sapiens, UniProt P30291) | 100
Mitogen-activated protein kinase kinase kinase 15 (MAP3K15, Homo sapiens, UniProt Q6ZN16) | 53
Receptor-type tyrosine-protein kinase FLT3 (FLT3, Homo sapiens, UniProt P36888, D835V/ITD) | 85

Sample 2
Cell line: HaCaT
Concentration: 100 µM
Time: 36 h
Compound | viability [%]
CCOC(=O)C1=C(C)NC(C)=C(C(=O)OCC)C1c1ccccc1/C=C/C(=O)OC(C)(C)C | 8.58
CC(=O)c1ccc(S(=O)(=O)NC(=O)NC2CCCCC2)cc1 | 99.9
O=C1CN2Cc3c(ccc(Cl)c3Cl)N=C2N1 | 90.7
Cc1[nH]cnc1CN1CCc2c(c3ccccc3n2C)C1=O | 49.6
O=C(Nc1ccc(Cl)cc1)c1cc(Br)ccc1O | 12.5

Sample 3
Target: Insulin receptor-related protein (INSRR, Homo sapiens, UniProt P14616)
Sequence of UniProt P14616 (whole entry, looked up): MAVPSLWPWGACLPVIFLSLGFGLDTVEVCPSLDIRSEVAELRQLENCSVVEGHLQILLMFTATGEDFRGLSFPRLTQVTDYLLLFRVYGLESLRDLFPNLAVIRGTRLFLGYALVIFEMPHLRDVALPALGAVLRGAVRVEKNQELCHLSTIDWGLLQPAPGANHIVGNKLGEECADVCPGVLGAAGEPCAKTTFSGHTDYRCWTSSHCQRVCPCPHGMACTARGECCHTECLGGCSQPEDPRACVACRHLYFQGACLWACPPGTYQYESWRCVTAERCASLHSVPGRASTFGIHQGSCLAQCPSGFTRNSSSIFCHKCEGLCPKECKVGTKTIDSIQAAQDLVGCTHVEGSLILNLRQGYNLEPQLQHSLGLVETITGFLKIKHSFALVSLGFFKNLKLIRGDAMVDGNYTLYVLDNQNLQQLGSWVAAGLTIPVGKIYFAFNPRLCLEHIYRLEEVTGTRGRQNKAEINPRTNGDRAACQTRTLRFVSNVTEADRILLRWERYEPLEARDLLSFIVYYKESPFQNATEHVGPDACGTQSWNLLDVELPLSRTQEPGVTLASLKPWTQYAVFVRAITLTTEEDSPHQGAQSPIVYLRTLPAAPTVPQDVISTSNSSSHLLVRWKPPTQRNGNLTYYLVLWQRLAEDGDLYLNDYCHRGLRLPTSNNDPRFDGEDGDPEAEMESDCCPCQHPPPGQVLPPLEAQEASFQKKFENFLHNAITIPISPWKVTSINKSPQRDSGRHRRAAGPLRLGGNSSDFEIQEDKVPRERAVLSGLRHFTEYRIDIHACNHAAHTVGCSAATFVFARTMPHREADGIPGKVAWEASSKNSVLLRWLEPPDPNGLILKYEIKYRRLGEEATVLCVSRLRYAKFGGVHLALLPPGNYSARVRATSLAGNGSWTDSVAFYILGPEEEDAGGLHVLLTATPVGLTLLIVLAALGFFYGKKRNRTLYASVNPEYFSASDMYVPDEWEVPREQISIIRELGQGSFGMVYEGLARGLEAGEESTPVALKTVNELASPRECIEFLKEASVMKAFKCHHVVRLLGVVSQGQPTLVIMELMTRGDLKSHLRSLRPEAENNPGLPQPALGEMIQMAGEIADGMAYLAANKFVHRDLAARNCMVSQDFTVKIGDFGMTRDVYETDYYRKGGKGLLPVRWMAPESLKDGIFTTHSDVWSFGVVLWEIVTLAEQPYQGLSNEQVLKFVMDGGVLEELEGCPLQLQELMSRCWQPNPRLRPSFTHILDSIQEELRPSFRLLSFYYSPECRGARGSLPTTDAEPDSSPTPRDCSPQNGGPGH
Observed: enzyme activity
Action: inhibitor
Concentration: 0.5 µM
Baseline: control
SMILES | remaining activity
Oc1ccc(-c2nc(-c3ccncc3)c(-c3ccc(F)cc3)[nH]2)cc1 | 98%
Cc1cccc(-c2[nH]c(C(C)(C)C)nc2-c2ccc3c(c2)OCO3)n1 | 95.1%
CC(C)[C@H](CO)Nc1nc(Nc2cc(N)cc(Cl)c2)c2ncn(C(C)C)c2n1 | 70.8%
CO[C@H]1C[C@@H]2CC[C@@H](C)[C@@](O)(O2)C(=O)C(=O)N2CCCC[C@H]2C(=O)O[C@H]([C@H](C)C[C@@H]2CC[C@@H](O)[C@H](OC)C2)CC(=O)[C@H](C)/C=C(\C)[C@@H](O)[C@@H](OC)C(=O)[C@H](C)C[C@H](C)/C=C/C=C/C=C/1C | 102%
Nc1[nH]nc2nc3ccccc3nc12 | 89.3%
O=c1c2ccccc2[nH]c(=S)n1CCN1CCC(=C(c2ccc(F)cc2)c2ccc(F)cc2)CC1 | 98.3%
Cc1ccc(NC(=O)c2ccc(CN3CCN(C)CC3)cc2)cc1Nc1nc(-c2cccnc2)cs1 | 102%
CNC(=O)c1cc(Oc2ccc(NC(=O)Nc3ccc(Cl)c(C(F)(F)F)c3)cc2)ccn1 | 104%
Cn1c2ccccc2c2c3c(c4c5ccccc5n(CCC#N)c4c21)CNC3=O | 82.5%
COc1ccc(OC)c2c(=S)c3ccccc3[nH]c12 | 88.7%
N#CC(C#N)=C(N)/C(C#N)=C/c1ccc(O)cc1 | 99.9%
Cc1nc(-c2ccccc2)c(-c2ccncc2)o1 | 101%
O=C1NC(=O)C(c2cn(CCCn3ccnc3)c3ccccc23)=C1Nc1ccccc1 | 101%
NCCNc1ncc(C(N)=O)c(Nc2cccc(C(F)(F)F)c2)n1 | 86.4%
Nc1ncnc2n[nH]c(Nc3ccc(F)cc3)c12 | 96.9%
O=C(CCCc1ccc(-c2ccccc2F)cc1)Nc1ccc(O)cc1 | 92.7%

Sample 4
Cell line: mouse MPNST tumor cells
Method: high-content nuclear imaging
Measured: cell number
Concentration: 10 µM
Time: 12 h
Setting: mean of 2 replicates
Baseline: plate mean
Reading: higher = more cells
SMILES | nuclei count
Cc1c(C)c2c(c(C)c1O)CCC(C)(C(=O)O)O2 (stereo not drawn) | 1.02 z-score
COc1ccccc1C1(O)CCN(CCCn2c3ccccc3c3ccccc32)CC1 | -6.56 z-score
O=C(Nc1nncs1)c1cccnc1 | 0.505 z-score
Nc1nc(Cl)nc2c1ncn2[C@H]1C[C@H](O)[C@@H](CO)O1 | -3.66 z-score
C[C@@H]1C[C@H]2[C@@H]3C[C@H](F)C4=CC(=O)C=C[C@]4(C)[C@@]3(F)[C@@H](O)C[C@]2(C)[C@@]1(O)C(=O)CO | 4.02 z-score
O=c1oc(-c2ccc(C(F)(F)F)cc2)nn1Cc1cc(Cl)ccc1O | 0.95 z-score
c1ccc(Cn2c(-c3ccc(OC[C@H](C4CCNCC4)n4c(-c5ccccc5)nc5ccccc54)cc3)nc3ccccc32)cc1 | -5.03 z-score

Repeated from above (sample 3):
SMILES | remaining activity
CNC(=O)c1cc(Oc2ccc(NC(=O)Nc3ccc(Cl)c(C(F)(F)F)c3)cc2)ccn1 | 104%
Cn1c2ccccc2c2c3c(c4c5ccccc5n(CCC#N)c4c21)CNC3=O | 82.5%
COc1ccc(OC)c2c(=S)c3ccccc3[nH]c12 | 88.7%
N#CC(C#N)=C(N)/C(C#N)=C/c1ccc(O)cc1 | 99.9%
